# Measured values pooled from the literature.
# Compare with care: the assays were run in different laboratories. ± gives the spread as reported.
SMILES,assay,test system,conditions,scale,endpoint,result
CO[C@H]1C[C@@H]2CC[C@@H](C)[C@@](O)(O2)C(=O)C(=O)N2CCCC[C@H]2C(=O)O[C@H]([C@H](C)C[C@@H]2CC[C@@H](OC(=O)NCCOCCOCCOCCOCCOCCOCCOCCOCCC(=O)N3CCc4cc(Cn5nc(-c6ccc7oc(N)nc7c6)c6c(N)ncnc65)ccc4C3)[C@H](OC)C2)C[C@@H](O)[C@H](C)/C=C(\C)[C@@H](O)[C@@H](OC)C(=O)[C@H](C)C[C@H](C)/C=C/C=C/C=C/1C,phase 1 dose escalation,advanced solid tumour patients,"intravenous, 12 mg weekly, grade ≥3",,deaths due to TEAEs,0%
CN1CC[C@@H](c2c(O)cc(O)c3c(=O)cc(-c4ccc(C(F)(F)F)cc4Cl)oc23)[C@@H]1CO,item: Hypertension,B-cell malignancies,"oral, 200 mg, intermittent dosing",,patients with adverse event,0%
C[C@]1(CO)Cc2ncn(-c3ccc(C#N)c(Cl)c3)c2C(=O)O1,,Chinese subjects,"dose not given, all doses total",,drug-related Headache incidence,8.3%
Oc1c(Cl)cc2c(c1Cl)Oc1cc(Cl)c(Cl)cc1O2,,cow whole milk,20 nM,reference: milk fat over skim milk,milk fat partition ratio,24.4
CC(C)C[C@H](NC(=O)[C@H](CCCCN)NC(=O)OCC1c2ccccc2-c2ccccc21)C(=O)N[C@H](C(=O)N[C@@H](Cc1ccccc1)C(=O)N[C@@H](Cc1ccccc1)C(=O)N[C@@H](CCCCN)C(=O)NCC(=O)N[C@@H](Cc1ccccc1)C(=O)N[C@@H](C)C(=O)N[C@@H](Cc1c[nH]c2ccccc12)C(=O)N[C@@H](CC(N)=O)C(=O)N[C@H](C(=O)N[C@H]1CSSC[C@@H](C(=O)N[C@@H](Cc2c[nH]cn2)C(=O)N[C@@H](CCCNC(=N)N)C(=O)N[C@@H](CCCNC(=N)N)C(=O)N[C@@H](C)C(=O)N[C@@H](CC(N)=O)C(N)=O)NC(=O)[C@H](C(C)C)NC(=O)[C@H](CCCNC(=N)N)NC(=O)[C@H](C(C)C)NC(=O)CNC(=O)[C@H](CC(N)=O)NC(=O)[C@H](CCCNC(=N)N)NC(=O)[C@H](Cc2ccc(O)cc2)NC(=O)[C@H](C(C)C)NC1=O)C(C)C)C(C)C,,"ICR mice, serum","intraperitoneal, 10 mg/kg, day 5",,globulin,18.89 ± 0.17 g/L
C=CC(=O)N1CC[C@H](n2nc(C#Cc3cc(OC)cc(OC)c3)c3c(N)ncnc32)C1,,"human patients, all","oral, dose not given, QD regimen, adverse drug reaction",,"decreased appetite, grade ≥3",4.7%
CC(=O)c1c(C)c2cnc(Nc3ccc(C4CCN(CCS(C)(=O)=O)CC4)cn3)nc2n(C2CCCC2)c1=O,,"human, plasma","oral, dose not given, steady state, continuous dosing, range over doses",,Vss,332 to 3190 L
COc1cc(N2CCC(N3CCN(C)CC3)CC2)ccc1Nc1ncnc(Nc2ccccc2S(=O)(=O)C(C)C)n1,item: Pyrexia,Japanese patients with solid tumours,"oral, dose not given, all grades",,treatment-emergent adverse events,5 number (percent)
CN[C@@H](C)C(=O)N[C@H]1CN(S(=O)(=O)c2cccc(S(=O)(=O)N3CC[C@H]4CC[C@@H](C(=O)NC(c5ccccc5)c5ccccc5)N4C(=O)[C@@H](NC(=O)[C@H](C)NC)C3)c2)CC[C@H]2CC[C@@H](C(=O)NC(c3ccccc3)c3ccccc3)N2C1=O,,patients with advanced solid tumours,"20 mg, phase I monotherapy",,treatment-related facial nerve disorder incidence,0%
Cc1cc(C)c(CNC(=O)c2cc(Cl)c3c(c2C)O[C@@](C)([C@H]2CC[C@H](N(C)C)CC2)O3)c(=O)[nH]1,,relapsed/refractory NHL patients,"dose not given, all TEAEs, safety set",,grade 5 AST increased incidence,0%
O=S(=O)(Nc1ccccc1)c1ccc(NC(=S)Nc2ccccc2)cc1,,"female mice, spleen","oral, 5 mg/kg daily 14 days",reference: body weight,relative organ weight,0.36%
NC(=O)[C@H]1CCN(c2ncnc(N)c2F)C[C@@H]1N1CCC[C@@H](Nc2cc(Cl)cc(C(F)(F)F)c2)C1=O,,B-cell malignancy patients,"oral, 328 mg twice daily, dose",,grade ≥3 leukopenia,0%
O=C(O)CCCOc1ccc(F)cc1-c1cc(-c2ccccc2C(F)(F)F)n(-c2ccccc2)n1,item: α2-glb,"Crl:CD(SD) rats, female, serum","iv, 25 µg/kg, 1 day",,serum protein fraction,8.4 ± 0.6%
COc1ccc([C@@H]2CC(=O)c3c(O)cc(O)cc3O2)cc1O,,"male Sprague-Dawley rat, obese","oral, 100 mg/kg of neohesperidin, 24 to 36 h, after β-glucuronidase/sulfatase hydrolysis",,"urinary excreted amount, total",2250 ± 1160 ng
